Experimental data of several laboratories.
Values joined by “and” are separate records of one study, mostly repeats; a detail may differ. ± marks the error that the study gave.
Target: Broad substrate specificity ATP-binding cassette transporter ABCG2 (ABCG2, Homo sapiens, UniProt Q9UNQ0)
Residues used in one study (Q9UNQ0 1-655): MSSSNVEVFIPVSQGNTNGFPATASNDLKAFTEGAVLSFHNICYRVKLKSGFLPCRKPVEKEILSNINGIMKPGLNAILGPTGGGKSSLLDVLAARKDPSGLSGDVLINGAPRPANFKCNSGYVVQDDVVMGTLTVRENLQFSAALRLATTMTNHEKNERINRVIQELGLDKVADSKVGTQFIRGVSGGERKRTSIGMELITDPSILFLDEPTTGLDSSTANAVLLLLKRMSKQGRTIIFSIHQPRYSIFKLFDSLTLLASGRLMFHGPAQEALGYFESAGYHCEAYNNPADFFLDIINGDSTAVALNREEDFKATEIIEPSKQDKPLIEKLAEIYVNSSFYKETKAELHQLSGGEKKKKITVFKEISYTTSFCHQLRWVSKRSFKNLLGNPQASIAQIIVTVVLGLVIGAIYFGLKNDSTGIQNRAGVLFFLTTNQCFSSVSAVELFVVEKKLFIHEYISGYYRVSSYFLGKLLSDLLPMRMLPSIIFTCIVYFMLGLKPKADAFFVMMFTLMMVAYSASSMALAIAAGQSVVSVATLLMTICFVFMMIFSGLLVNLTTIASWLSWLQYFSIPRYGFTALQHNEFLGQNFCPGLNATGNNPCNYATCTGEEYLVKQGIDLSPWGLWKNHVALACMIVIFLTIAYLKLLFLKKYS

| SMILES | assay | system | setting | scale | endpoint | result |
| --- | --- | --- | --- | --- | --- | --- |
| CS(=O)(=O)CCNCc1ccc(-c2ccc3ncnc(Nc4ccc(OCc5cccc(F)c5)c(Cl)c4)c3c2)o1 | bidirectional transwell permeability | MDCKII cells transfected with ABCG2 | 1 µM, 1 h, pH 7.4, together with: Ko143 1 µM |  | Papp A-B | 1.64 ± 0.4 ×10⁻⁶ cm/s |
| C[C@]12CCCN1CC1=NNC(=O)c3cc(F)cc4[nH]c2c1c34 | substrate | membrane vesicles | 30 µM | relative to: ATP over AMP | uptake ratio | 0.926 |
| CC(C)c1nc(N(C)S(C)(=O)=O)nc(-c2ccc(F)cc2)c1/C=C/[C@@H](O)C[C@@H](O)CC(=O)O | substrate | human EpiIntestinal microtissues | 5 µM, 2 h, together with: Ko143 5 µM | relative to: B to A over A to B | efflux ratio | 2.3 |
| CN1C[C@@H]2C[C@H]1CN2c1cc2c(cc1F)c(=O)c(C(=O)O)cn2C1CC1 | substrate | MDCK-II transduced with human ABCG2 | 10 µM, 4 h, basolateral to apical |  | transport | 41.5 ± 11.6% |
| COc1ccc2c3c([nH]c2c1)[C@H](CC(C)C)N1C(=O)[C@H](CC(=O)O)NC(=O)[C@@H]1C3 | protoporphyrin IX accumulation | A549 | 1 µM, 2 h, together with: ALA 1 mM |  | inhibition | 10.1% and 16.9% |
| CC(C)c1nc(N(C)S(C)(=O)=O)nc(-c2ccc(F)cc2)c1/C=C/[C@@H](O)C[C@@H](O)CC(=O)O |  | human | 10 mg, compound alone |  | Tmax | 4 h |
| C/C(O)=C(\C#N)C(=O)Nc1ccc(C(F)(F)F)cc1 | substrate | MDCK-II cells expressing ABCG2 | 5 µM, together with: Ko143 1 M |  | efflux ratio decrease | 96.5% |
| Cc1cc(Nc2ncnc3ccc(NC4=NC(C)(C)CO4)cc23)ccc1Oc1ccn2ncnc2c1 | bidirectional transwell permeability | MDCKII cells transfected with ABCG2 | 1 µM, 1 h, pH 7.4, together with: Ko143 1 µM |  | efflux ratio | 1.01 ± 0.16 |
| COc1ccc2c3c([nH]c2c1)[C@H](CC(C)C)N1C(=O)[C@H](CC(=O)NC(C)C)NC(=O)[C@@H]1C3 | inhibitor, refers to: protoporphyrin IX | A549 | 1 µM, 2 h, together with: 1 mM ALA |  | inhibition | 68% and 93.2% and 72.5% and 82.9% |
| C/C(O)=C(\C#N)C(=O)Nc1ccc(C(F)(F)F)cc1 |  | Caco-2 | 1 µM, 2 h, pH 7.4, together with: 2 µM Ko143 |  | Papp A to B | 18.9 ×10⁻⁶ cm/s |
| O=C(O)[C@H]1O[C@@H](Oc2ccc3oc(-c4ccccc4)cc(=O)c3c2)[C@H](O)[C@@H](O)[C@@H]1O | transport | membrane vesicles |  |  | Km | 23 µM |
| CCOc1cc2ncc(C#N)c(Nc3ccc(OCc4ccccn4)c(Cl)c3)c2cc1NC(=O)/C=C/CN(C)C | bidirectional transwell permeability | MDCKII cells transfected with ABCG2 | 1 µM, 1 h, pH 7.4 |  | efflux ratio | 3 ± 2.53 |

Repeated from above:
| SMILES | assay | system | setting | scale | endpoint | result |
| --- | --- | --- | --- | --- | --- | --- |
| CN1C[C@@H]2C[C@H]1CN2c1cc2c(cc1F)c(=O)c(C(=O)O)cn2C1CC1 | substrate | MDCK-II transduced with human ABCG2 | 10 µM, 4 h, basolateral to apical |  | transport | 41.5 ± 11.6% |
